Measured values of several laboratories.
Values joined by “and” are separate records of one study, mostly repeats; a detail may differ. Numbers after ± are the reported error.
Grm2: Metabotropic glutamate receptor 2 (Grm2, Rattus norvegicus, UniProt P31421)
GLP1R: Glucagon-like peptide 1 receptor (GLP1R, Homo sapiens, UniProt P43220)
E3 ubiquitin-protein ligase NEDD4: E3 ubiquitin-protein ligase NEDD4 (Homo sapiens, UniProt P46934)
RPA1 N-terminal domain: Replication protein A 70 kDa DNA-binding subunit, N-terminal domain (RPA1, Homo sapiens, UniProt P27694)
GRM4: Metabotropic glutamate receptor 4 (GRM4, Homo sapiens, UniProt Q14833)
Lysophospholipase-like protein 1: Lysophospholipase-like protein 1 (Mus musculus, UniProt Q3UFF7)
MAPK8: Mitogen-activated protein kinase 8 (MAPK8, Homo sapiens, UniProt P45983)

Chains of the proteins cited; added tags and fusions are not shown. Residues count along the entry.
UniProt P31421, 19-872 limits assumed: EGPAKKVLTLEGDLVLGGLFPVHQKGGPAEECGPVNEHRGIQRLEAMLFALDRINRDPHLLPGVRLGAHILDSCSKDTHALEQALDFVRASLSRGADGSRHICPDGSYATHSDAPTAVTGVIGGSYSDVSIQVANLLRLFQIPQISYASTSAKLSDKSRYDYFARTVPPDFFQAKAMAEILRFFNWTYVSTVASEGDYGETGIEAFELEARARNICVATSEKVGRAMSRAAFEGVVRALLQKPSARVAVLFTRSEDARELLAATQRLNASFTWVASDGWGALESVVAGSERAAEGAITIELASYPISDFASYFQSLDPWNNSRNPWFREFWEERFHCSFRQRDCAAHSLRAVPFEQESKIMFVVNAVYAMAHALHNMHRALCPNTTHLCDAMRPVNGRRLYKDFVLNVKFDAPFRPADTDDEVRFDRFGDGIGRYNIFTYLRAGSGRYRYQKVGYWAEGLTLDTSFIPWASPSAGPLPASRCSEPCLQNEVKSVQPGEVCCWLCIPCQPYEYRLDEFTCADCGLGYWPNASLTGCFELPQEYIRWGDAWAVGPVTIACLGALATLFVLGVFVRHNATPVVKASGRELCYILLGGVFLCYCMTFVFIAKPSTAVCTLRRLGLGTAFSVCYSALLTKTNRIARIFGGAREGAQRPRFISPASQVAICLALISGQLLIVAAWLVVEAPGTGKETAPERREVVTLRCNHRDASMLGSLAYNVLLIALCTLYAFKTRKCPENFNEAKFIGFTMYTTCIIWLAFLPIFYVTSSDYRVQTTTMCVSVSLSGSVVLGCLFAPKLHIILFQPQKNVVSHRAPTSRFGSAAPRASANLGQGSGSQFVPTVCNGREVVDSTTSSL
UniProt P46934, whole entry, looked up: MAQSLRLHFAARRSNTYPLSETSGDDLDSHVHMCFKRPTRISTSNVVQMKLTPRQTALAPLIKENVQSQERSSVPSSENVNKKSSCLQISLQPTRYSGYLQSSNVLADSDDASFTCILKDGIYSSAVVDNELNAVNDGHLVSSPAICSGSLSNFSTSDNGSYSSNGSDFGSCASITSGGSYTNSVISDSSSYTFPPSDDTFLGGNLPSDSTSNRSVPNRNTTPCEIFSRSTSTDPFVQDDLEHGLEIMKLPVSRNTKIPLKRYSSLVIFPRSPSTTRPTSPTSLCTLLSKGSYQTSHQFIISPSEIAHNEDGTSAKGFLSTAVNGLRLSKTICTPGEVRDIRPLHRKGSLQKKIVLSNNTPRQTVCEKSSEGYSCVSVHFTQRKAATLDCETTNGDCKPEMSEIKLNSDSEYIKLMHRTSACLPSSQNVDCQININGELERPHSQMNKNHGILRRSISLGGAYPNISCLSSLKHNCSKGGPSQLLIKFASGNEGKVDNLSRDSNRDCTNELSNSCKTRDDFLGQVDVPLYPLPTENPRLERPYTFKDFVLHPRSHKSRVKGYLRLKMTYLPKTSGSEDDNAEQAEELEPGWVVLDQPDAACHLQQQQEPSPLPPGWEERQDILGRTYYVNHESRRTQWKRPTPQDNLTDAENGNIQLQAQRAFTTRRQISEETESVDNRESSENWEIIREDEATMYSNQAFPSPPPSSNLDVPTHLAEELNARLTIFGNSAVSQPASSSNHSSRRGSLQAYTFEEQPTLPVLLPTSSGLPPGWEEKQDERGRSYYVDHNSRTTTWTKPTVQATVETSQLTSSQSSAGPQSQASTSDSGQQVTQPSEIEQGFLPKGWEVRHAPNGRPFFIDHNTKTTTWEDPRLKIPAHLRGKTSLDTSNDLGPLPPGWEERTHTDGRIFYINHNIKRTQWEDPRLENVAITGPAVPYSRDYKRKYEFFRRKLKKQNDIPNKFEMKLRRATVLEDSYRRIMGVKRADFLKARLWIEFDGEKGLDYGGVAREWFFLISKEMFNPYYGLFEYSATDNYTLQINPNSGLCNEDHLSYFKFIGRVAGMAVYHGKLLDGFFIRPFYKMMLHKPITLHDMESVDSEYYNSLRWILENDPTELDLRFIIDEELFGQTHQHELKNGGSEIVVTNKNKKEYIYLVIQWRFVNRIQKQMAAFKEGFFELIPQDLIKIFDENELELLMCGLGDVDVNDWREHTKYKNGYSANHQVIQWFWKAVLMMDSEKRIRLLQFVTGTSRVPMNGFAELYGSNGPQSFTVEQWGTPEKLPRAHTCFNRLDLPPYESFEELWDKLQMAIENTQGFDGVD
UniProt Q14833, 33-912 limits assumed: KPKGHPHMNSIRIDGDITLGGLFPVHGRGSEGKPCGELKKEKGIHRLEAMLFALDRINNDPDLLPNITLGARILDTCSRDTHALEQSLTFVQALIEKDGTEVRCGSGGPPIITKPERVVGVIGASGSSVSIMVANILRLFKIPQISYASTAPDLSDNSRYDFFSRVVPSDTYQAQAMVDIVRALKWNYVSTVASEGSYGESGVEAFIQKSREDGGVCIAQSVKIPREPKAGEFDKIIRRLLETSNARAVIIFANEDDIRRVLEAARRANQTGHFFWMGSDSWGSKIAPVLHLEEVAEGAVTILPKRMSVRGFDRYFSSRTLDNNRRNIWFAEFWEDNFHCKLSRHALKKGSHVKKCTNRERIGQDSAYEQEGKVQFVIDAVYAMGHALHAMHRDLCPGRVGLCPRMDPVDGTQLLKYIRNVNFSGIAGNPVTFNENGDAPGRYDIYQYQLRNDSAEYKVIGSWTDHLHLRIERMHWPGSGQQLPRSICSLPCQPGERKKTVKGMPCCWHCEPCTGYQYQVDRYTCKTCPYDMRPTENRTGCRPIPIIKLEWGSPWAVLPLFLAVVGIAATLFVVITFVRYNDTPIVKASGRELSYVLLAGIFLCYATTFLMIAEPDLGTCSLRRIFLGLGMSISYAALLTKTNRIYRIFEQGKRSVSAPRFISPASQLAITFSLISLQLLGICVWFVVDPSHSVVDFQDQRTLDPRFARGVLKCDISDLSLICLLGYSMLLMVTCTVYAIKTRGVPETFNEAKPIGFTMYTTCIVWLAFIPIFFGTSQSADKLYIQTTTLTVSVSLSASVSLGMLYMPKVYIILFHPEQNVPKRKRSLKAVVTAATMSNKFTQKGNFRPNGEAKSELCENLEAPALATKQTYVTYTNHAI
UniProt P45983, 1-384 isoform 3: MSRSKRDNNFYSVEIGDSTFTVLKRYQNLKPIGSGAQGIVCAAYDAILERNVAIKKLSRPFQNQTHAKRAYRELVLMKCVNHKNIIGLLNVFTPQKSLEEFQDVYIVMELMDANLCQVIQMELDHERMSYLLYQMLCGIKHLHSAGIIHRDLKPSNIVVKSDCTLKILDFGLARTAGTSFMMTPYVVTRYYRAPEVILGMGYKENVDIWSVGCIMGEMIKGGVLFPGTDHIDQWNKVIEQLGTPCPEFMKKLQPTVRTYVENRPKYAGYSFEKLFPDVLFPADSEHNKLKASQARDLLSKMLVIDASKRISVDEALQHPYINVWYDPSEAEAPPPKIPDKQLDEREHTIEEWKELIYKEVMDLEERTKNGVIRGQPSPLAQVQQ
UniProt P45983, 1-384 isoform 3 C116S: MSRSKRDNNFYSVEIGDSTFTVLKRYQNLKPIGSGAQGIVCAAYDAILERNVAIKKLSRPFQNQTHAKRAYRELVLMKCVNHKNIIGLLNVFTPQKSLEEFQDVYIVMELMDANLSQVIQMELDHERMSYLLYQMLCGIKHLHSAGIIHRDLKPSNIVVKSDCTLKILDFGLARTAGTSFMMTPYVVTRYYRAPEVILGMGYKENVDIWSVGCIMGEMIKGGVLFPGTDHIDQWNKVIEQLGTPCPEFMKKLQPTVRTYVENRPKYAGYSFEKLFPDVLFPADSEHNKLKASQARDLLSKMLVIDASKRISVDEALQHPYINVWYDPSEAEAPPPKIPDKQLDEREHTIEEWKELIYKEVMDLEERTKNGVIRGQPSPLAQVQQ
UniProt O89017, 18-435 limits assumed: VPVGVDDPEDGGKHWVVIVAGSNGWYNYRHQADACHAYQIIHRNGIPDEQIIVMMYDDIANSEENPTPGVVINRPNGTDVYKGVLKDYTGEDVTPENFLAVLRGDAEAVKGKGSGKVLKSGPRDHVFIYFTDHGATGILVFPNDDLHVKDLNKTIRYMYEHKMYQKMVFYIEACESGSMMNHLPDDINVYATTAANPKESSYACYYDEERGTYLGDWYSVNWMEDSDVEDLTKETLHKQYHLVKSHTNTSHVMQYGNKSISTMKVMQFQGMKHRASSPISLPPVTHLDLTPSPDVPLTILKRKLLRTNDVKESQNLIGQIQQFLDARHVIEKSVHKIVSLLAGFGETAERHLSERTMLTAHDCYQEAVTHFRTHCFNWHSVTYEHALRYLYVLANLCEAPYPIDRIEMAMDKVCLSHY
UniProt P11473, whole entry: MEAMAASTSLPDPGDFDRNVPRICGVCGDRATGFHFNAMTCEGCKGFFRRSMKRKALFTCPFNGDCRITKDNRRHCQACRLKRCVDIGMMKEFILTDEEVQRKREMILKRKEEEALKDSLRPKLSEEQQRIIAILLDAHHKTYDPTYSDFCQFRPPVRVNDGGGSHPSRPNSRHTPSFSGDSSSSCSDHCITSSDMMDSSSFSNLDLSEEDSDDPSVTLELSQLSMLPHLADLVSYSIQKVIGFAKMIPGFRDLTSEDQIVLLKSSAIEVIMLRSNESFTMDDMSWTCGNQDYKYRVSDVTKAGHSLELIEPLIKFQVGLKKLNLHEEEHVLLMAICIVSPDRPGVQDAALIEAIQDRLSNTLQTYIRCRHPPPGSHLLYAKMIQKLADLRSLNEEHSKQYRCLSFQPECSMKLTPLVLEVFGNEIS
UniProt P05067, 672-713 limits assumed: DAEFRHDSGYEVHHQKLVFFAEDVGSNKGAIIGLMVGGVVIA
UniProt P05067, whole entry, looked up: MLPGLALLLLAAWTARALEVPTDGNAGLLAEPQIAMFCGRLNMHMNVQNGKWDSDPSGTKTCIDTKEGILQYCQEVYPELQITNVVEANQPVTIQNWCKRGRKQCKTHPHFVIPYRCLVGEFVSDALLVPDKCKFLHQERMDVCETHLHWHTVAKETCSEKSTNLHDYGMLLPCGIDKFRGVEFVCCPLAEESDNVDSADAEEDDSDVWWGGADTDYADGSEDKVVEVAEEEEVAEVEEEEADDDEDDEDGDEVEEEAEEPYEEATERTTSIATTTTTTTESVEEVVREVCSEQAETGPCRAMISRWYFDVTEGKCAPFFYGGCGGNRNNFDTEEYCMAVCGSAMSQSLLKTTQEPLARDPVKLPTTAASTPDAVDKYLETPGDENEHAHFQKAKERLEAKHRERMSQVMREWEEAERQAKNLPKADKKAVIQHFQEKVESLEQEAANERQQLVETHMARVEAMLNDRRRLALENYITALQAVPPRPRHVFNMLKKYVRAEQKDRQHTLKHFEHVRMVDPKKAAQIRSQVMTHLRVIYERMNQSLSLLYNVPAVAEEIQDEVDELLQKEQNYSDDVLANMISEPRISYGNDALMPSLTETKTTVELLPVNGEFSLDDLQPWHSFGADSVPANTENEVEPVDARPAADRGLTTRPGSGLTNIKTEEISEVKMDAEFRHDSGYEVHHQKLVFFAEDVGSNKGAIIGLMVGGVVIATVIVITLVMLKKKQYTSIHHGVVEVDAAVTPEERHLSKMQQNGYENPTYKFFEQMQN
UniProt P19491, 22-883 limits assumed: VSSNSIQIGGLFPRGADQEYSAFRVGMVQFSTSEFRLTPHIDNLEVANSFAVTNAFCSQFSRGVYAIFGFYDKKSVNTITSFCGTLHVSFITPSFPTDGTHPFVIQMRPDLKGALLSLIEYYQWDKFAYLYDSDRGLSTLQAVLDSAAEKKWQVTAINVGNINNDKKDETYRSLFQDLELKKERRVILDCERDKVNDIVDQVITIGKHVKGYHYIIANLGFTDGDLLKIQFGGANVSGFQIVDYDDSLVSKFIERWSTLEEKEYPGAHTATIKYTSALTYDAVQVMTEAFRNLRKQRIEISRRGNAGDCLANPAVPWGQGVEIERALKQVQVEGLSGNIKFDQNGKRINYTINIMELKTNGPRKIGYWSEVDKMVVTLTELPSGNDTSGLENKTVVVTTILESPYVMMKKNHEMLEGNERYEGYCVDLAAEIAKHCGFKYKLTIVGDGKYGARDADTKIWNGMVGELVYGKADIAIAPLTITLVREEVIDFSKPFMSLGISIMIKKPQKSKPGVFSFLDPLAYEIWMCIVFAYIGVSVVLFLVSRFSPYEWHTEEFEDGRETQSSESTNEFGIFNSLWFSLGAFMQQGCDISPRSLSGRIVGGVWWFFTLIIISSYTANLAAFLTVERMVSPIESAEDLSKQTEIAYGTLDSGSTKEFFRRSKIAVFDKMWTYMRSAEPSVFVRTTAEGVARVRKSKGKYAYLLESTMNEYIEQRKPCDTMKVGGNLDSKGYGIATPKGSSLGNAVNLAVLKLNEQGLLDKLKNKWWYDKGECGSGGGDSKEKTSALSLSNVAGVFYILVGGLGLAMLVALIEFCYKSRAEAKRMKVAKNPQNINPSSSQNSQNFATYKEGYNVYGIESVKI
UniProt Q5VWZ2, whole entry: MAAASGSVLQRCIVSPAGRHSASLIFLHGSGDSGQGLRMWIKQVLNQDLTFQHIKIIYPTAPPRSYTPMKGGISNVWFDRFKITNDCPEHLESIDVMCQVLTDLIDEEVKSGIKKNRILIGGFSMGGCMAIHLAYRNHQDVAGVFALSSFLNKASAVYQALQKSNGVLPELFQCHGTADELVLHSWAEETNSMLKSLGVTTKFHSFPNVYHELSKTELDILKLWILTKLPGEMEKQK

CC(=NN=c1[nH]c2cc(F)c(F)cc2n1C)c1ccc(F)cn1
protein level (Nuclear receptor coactivator 3 (Homo sapiens, UniProt Q9Y6Q9); Western blot, refers to: Nuclear receptor coactivator 3; MCF7; concentration not given): decreased

NC(=O)c1cn(-c2ccc(F)cc2)c2ccc(CCc3ccccc3)cc2c1=O
response (Grm2; calcium mobilization, negative allosteric modulator; 30 µM, with: glutamate 100 µM; relative to: glutamate maximum): 2.07 ± 1.38%

CCOC(=O)/C=C/C(=O)N(CC(N)=O)NC(=O)[C@@H]1CCCN1C(=O)[C@H](CC)NC(C)=O
kobs/[I] (Legumain (Mus musculus, UniProt O89017); inhibitor; pH 5.8, with: Cbz-Ala-Ala-Asn-AMC 10 µM): 36200 M⁻¹ s⁻¹

CC(=O)N[C@@H](CCC(N)=O)C(=O)N[C@H](C(=O)N[C@@H](C)C(=O)N[C@@H](CCCNC(=N)N)C(=O)N[C@@H](CCCCNC(=O)CCc1ccc(N=Nc2ccc(N(C)C)cc2)cc1)C(=O)N[C@@H](CO)C(=O)N[C@H](C(=O)NCC(=O)NCC(=O)NCCCNC(=S)Nc1ccc2c(c1)C(=O)OC21c2ccc(O)cc2Oc2cc(O)ccc21)[C@@H](C)O)[C@@H](C)O
kcat (NAD-dependent protein deacetylase sirtuin-3, mitochondrial (SIRT3, Homo sapiens, UniProt Q9NTG7); substrate, fluorescence kinetics; 37 °C, 60 nM enzyme, with: 500 µM NAD+): 0.0019 ± 2.7e-05 s⁻¹

COc1ccc(Nc2c(C(=O)O)ccnc2C(=O)O)cc1
remaining activity (Lysine-specific demethylase 4E (KDM4E, Homo sapiens, UniProt B2RXH2); inhibitor, FDH-coupled spectrophotometry, refers to: formaldehyde; 200 µM): 6%

NCCCNCCCCNCCCNCc1ccc2ccccc2c1
relative Vmax (Smox (Mus musculus, UniProt Q99K82); substrate; relative to: spermine): 0.4

CC(C)(Cn1cc(CCC(=O)Nc2ccccc2)nn1)c1c[nH]c2ccccc12
Emax (GLP1R; cAMP accumulation, positive allosteric modulator, HTRF; 0.6 µM, crude reaction product, with: GLP-1(9-36) at EC20; relative to: BETP): 96.2%

Cc1cc(SCc2sc(-c3cn[nH]c3)nc2C)ccc1OCC(=O)O
IC50 (Vitamin D3 receptor (VDR, Homo sapiens, UniProt P11473); reporter gene, antagonist; HEK-293T; up to 100 µM, CYP24A1 promoter luciferase, with: 1,25(OH)2D3 10 nM): inactive

CCOC(=O)/C=C/CNCCCN1c2ccccc2CCc2ccc(Br)cc21
ubiquitination TR-FRET signal AUC (E3 ubiquitin-protein ligase NEDD4; inhibitor, Ub-TR-FRET; 0.4115 µM, 1 h preincubation, HECT domain, with: ATP 2 mM; higher = more ubiquitination): 135000 a.u. and 133000 a.u.

Cc1ccc(C(=O)Nc2cc(F)ccc2C(=O)O)cc1S(=O)(=O)Nc1cccc(Cl)c1
ligand efficiency (RPA1 N-terminal domain; binding, fluorescence polarisation competition; with: FITC-ATRIP probe): 0.21

COc1ccc(NC(=O)CN2CCCN(S(=O)(=O)c3cccs3)CC2)c(OC)c1
maximal response (GRM4; calcium mobilization, positive allosteric modulator; CHO cells with Gqi5; with: glutamate; relative to: PHCCC maximal response): 52.9%

CC(=O)NCCCC[C@H](NC(=O)CNC(=O)[C@H](CCCNC(=N)N)NC(C)=O)C(=O)Nc1ccc2c(C)cc(=O)oc2c1
kcat (Histone deacetylase 8 (HDAC8, Homo sapiens, UniProt Q9BY41); deacetylation, substrate; 25 °C, with: 150 nM enzyme): 0.011 ± 0.003 s⁻¹

CN(Cc1ccncc1)c1ccc2c(c1)c(=O)c(C(N)=O)cn2-c1ccc(F)cc1
response (Grm2; calcium mobilization, negative allosteric modulator; 30 µM, with: glutamate 100 µM; relative to: glutamate maximum): 1.76 ± 0.74%

CCn1c(-c2cc(NC(=O)c3cnccn3)n[nH]2)cc2ccc(OC)cc21
maximal inhibition (Casein kinase II subunit alpha' (CSNK2A2, Homo sapiens, UniProt P19784); enzyme activity, inhibitor): 94.2%

Nc1nc(SCc2ccc(Cl)cc2)nn1S(=O)(=O)c1cccc([N+](=O)[O-])c1
probe labelling (Lysophospholipase-like protein 1; activator, gel-based ABPP FP-rhodamine; relative to: DMSO): 2.7 fold

COc1ccc(NC(=O)CN2CCCN(S(=O)(=O)c3ccccc3F)CC2)c(OC)c1
maximal response (GRM4; calcium mobilization, positive allosteric modulator; CHO cells with Gqi5; with: glutamate; relative to: PHCCC maximal response): 36.6%

Cc1cc(NC(=O)c2cccc(NC(=O)C3=CC(C)(C)CC3=O)c2)ccc1Nc1nccc(-c2cccnc2)n1
remaining activity (MAPK8; kinase activity, inhibitor; 4.938 µM, unit not given, with: 10 mM GSH; relative to: DMSO): 0.15

O=C(NCCc1ccccc1)C12CC1/C(=N\O)c1ccccc1O2 (stereo not drawn)
response (GRM4; positive allosteric modulator, calcium mobilization; CHO expressing Gqi5; concentration not given, with: glutamate EC20; relative to: glutamate 1 mM): 92.9 ± 5.9%

COc1ccc2[nH]cc(CCc3ccccc3)c2c1
inhibition (Amyloid-beta precursor protein, Aβ1-40 (APP, Homo sapiens, UniProt P05067); Aβ40 aggregation, thioflavin T fluorescence; 25 µM): 0%

Cc1[nH]c2cc(Cl)cc(Cl)c2c1CCn1cc(CN2CCS(=O)(=O)CC2)nn1
Emax (GLP1R; cAMP accumulation, positive allosteric modulator, HTRF; 0.6 µM, crude reaction product, with: GLP-1(9-36) at EC20; relative to: BETP): 95.5%

CC(C)(C)c1ccnc(NC(=O)c2ccc(-c3nn([C@@H]4CCCN(C(=O)C5CC5)C4)c4ncnc(N)c34)cc2)c1
residence time (Tyrosine-protein kinase BTK, non-phosphorylated (BTK, Homo sapiens, UniProt Q06187); TR-FRET binding kinetics; 25 °C, unphosphorylated protein): 2.2 min

COC(=O)[C@@]1(C)C=C(C(=O)OCc2cccc(C(=O)Nc3ccc(Nc4nccc(-c5cccnc5)n4)c(C)c3)c2)C(=O)CC1
koff (Mitogen-activated protein kinase 8 (MAPK8, Homo sapiens, UniProt P45983, C116S); surface plasmon resonance; 100, 300, 1000 nM, 1:1 binding model): 0.0621 s⁻¹

CN1CCN(c2ccc(-c3cccc(CN4CCN(CCNC(=O)CCCCCCCNc5cccc6c5C(=O)N(C5CCC(=O)NC5=O)C6=O)CC4)c3)cc2NC(=O)c2c[nH]c(=O)cc2C(F)(F)F)CC1 (stereo not drawn)
Dmax (WD repeat-containing protein 5 (WDR5, Homo sapiens, UniProt P61964); degrader, immunoblot; MV4;11; 18 h): 77 ± 12%

Nc1nc(NCCc2ccc(Cl)cc2)nn1S(=O)(=O)C1CCCCC1
probe labelling (Lysophospholipase-like protein 1; activator, gel-based ABPP FP-rhodamine; relative to: DMSO): 1 fold

Cc1cccc(NS(=O)(=O)c2cc(C(=O)Nc3ccccc3C(=O)O)ccc2C)c1
ligand efficiency (RPA1 N-terminal domain; binding, fluorescence polarisation competition; with: FITC-ATRIP probe): 0.18

COC(=O)[C@@]1(C)C=C(C(=O)Nc2cccc(C(=O)NC34CC(Nc5nccc(-c6cccnc6)n5)(C3)C4)c2)C(=O)CC1
remaining activity (MAPK8; kinase activity, inhibitor; 0.1829 µM, unit not given, with: 10 mM GSH; relative to: DMSO): 0.166

CC(=O)N1CCN(c2ccc(Nc3ncc4c(n3)N(C)C(=O)N(c3cc(NC(=O)c5ccc(CN6CCC(N(C)C)C6)c(C(F)(F)F)c5)ccc3C)C4)cn2)CC1 (stereo not drawn)
GI50 (FGFR4/Transcription factor ETV6 (Homo sapiens, UniProt P22455+P41212); cell proliferation; Ba/F3 TEL-FGFR4; 72 h): 6 nM

O=C(NC1CCCCC1)C12CC1/C(=N\O)c1ccccc1O2 (stereo not drawn)
response (GRM4; positive allosteric modulator, calcium mobilization; CHO expressing Gqi5; concentration not given, with: glutamate EC20; relative to: (±)-PHCCC): 73.7 ± 1%

CCN(CC)Cc1cccc(/C=C/c2nc3ccc(F)cc3c(=O)n2-c2ccccc2Cl)n1
Hill coefficient (Glutamate receptor 2 (Gria2, Rattus norvegicus, UniProt P19491); glutamate-induced current, inhibitor, whole-cell patch clamp; HEK293; holding -60 mV, with: 3 mM glutamate, 30 µM cyclothiazide): 1.72 ± 0.08

O=C(OC(C(F)(F)F)C(F)(F)F)N1CCC(OC(c2ccc(F)cc2)c2ccc(F)cc2)CC1
activity (Fatty-acid amide hydrolase 1 (FAAH, Homo sapiens, UniProt O00519); enzyme activity, inhibitor, fluorescence AAMCA substrate; 1 µM): inactive

CC(=O)N[C@H]1[C@@H](O[C@H](C)[C@H](N)C(=O)O)O[C@H](CO)[C@H](O)[C@@H]1O
-TΔS (CLEC10A, carbohydrate recognition domain (Homo sapiens, UniProt Q8IUN9); binding, ITC; 293 K): 4.6 ± 0.2 kcal/mol

COc1ccc(S(=O)(=O)n2nc(SCc3ccc(Cl)cc3)nc2N)cn1
FP-rhodamine labelling (Lysophospholipase-like protein 1 (LYPLAL1, Homo sapiens, UniProt Q5VWZ2); activator, gel-based ABPP; purified protein; relative to: DMSO): 1.9 fold

O=C(O)c1cc(C(=O)N[C@@H](Cc2c[nH]c3ccccc23)C(=O)O)cc([C@H]2CCN[C@@H]2C(=O)O)c1
specific binding (Glutamate receptor ionotropic, kainate 2 (Grik2, Rattus norvegicus, UniProt P42260); radioligand binding; Sf9 membranes; 10 µM, homomeric receptor, with: [3H]kainate): 90 ± 6%

CCOC(=O)/C=C/CNCCCCCN1c2ccccc2CCc2ccc(Cl)cc21
ubiquitination TR-FRET signal AUC (E3 ubiquitin-protein ligase NEDD4; inhibitor, Ub-TR-FRET; 11.11 µM, 1 h preincubation, HECT domain, with: ATP 2 mM; higher = more ubiquitination): 20600 a.u. and 46700 a.u. and 22700 a.u. and 53200 a.u. and 45700 a.u. and 22900 a.u.

N#Cc1cnc(Nc2nc3ccccc3o2)nc1-c1ccccn1
maximal response (Metabotropic glutamate receptor 5 (Grm5, Rattus norvegicus, UniProt P31424); calcium mobilization, negative allosteric modulator; with: glutamate EC80; relative to: glutamate maximum): 22 ± 2%

O=C(O)CCC(C(=O)/C=C/c1ccc(O)c(OC(F)(F)F)c1)C(=O)/C=C/c1ccc(O)c(OC(F)(F)F)c1
Aβ band density (Amyloid-beta precursor protein (APP, Homo sapiens, UniProt P05067); SDS-PAGE western blot, refers to: Aβ1-42 species 75-200 kDa; 30 µM, 24 h, 37 °C, with: Aβ 10 µM; relative to: DMSO control): 200 ± 52%

CCOc1ccc(C(=O)C2=C(O)C(=O)N(CCCN3CCOCC3)C2c2cc(OC)ccc2OC)cc1 (stereo not drawn)
antagonist activity (fMet-Leu-Phe receptor (FPR1, Homo sapiens, UniProt P21462); fMLF-induced calcium mobilization, antagonist; HL-60 expressing FPR1; concentration not given): inactive

CC(=O)Nc1ncc(CN2CC[C@H](Oc3cccc(F)n3)C[C@@H]2C)s1 [isotope labelled]
Bmax (Protein O-GlcNAcase (Rattus norvegicus, UniProt Q8VIJ5); saturation binding; rat hippocampus homogenate; radiolabelled compound): 32.6 ± 9.8 nM

C[C@H](Nc1nc(N[C@H](C)C2CC2)nc(-c2cccc(C(F)(F)F)n2)n1)C1CC1
maximal inhibition (Isocitrate dehydrogenase [NADP] cytoplasmic, homodimer (IDH1, Homo sapiens, UniProt O75874, R132H); enzyme activity, inhibitor, diaphorase/resazurin coupled): 89%

COCCOCCOCCOC(=O)C(C#N)=Cc1ccc(N(C)C)cc1OC
excitation maximum (Amyloid-beta precursor protein, aggregated Aβ42 (APP, Homo sapiens, UniProt P05067); fluorescence after Aβ binding, fluorescence spectroscopy; PBS; 4 µM, with: aggregated Aβ(1-42) 5 µM): 444 nm

CCOC(=O)/C=C/CNCCCCN1c2ccccc2CCc2ccc(Cl)cc21
ubiquitination TR-FRET signal AUC (E3 ubiquitin-protein ligase NEDD4; inhibitor, Ub-TR-FRET; 0.1372 µM, 1 h preincubation, HECT domain, with: ATP 2 mM; higher = more ubiquitination): 78100 a.u. and 130000 a.u. and 127000 a.u. and 83600 a.u. and 82800 a.u. and 77300 a.u.

Cc1ccc(NC(=O)c2ccc(C)c(S(=O)(=O)Nc3ccc(Br)cc3)c2)c(C(=O)O)c1
ligand efficiency (RPA1 N-terminal domain; binding, fluorescence polarisation competition; with: FITC-ATRIP probe): 0.2

CC[C@H](C)[C@H](NC(=O)c1ccccc1N)C(=O)N[C@@H](CCCCN)C(=O)N[C@@H](CCC(N)=O)C(=O)N[C@@H](CO)C(=O)N[C@@H](CO)C(=O)N[C@@H](CC(C)C)C(=O)N[C@@H](CC(C)C)C(=O)N[C@@H](CCCCNc1ccc([N+](=O)[O-])cc1[N+](=O)[O-])C(N)=O
kcat (Mitochondrial intermediate peptidase (MIPEP, Homo sapiens, UniProt Q99797); substrate, FRET peptide hydrolysis): 0.055 s⁻¹

CCOC(=O)/C=C/CNCCCN1c2ccccc2CCc2ccc([N+](=O)[O-])cc21
ubiquitination TR-FRET signal AUC (E3 ubiquitin-protein ligase NEDD4; inhibitor, Ub-TR-FRET; 0.1372 µM, 1 h preincubation, HECT domain, with: ATP 2 mM; higher = more ubiquitination): 145000 a.u. and 146000 a.u.

Cc1cccc2nc(-c3ccc4c(c3)C(=O)N(C3CCC(=O)NC3=O)C4=O)c(NC(C)(C)CC(C)(C)C)n12 (stereo not drawn)
Dmax (WEE1/CRBN (Homo sapiens, UniProt P30291+Q96SW2); degrader, HiBiT; Jurkat; 5 h): 85%
